Assay results of several laboratories.
Lines come from different studies, so protocols differ. Several values in a cell are separate wells, animals, samples, runs or records. ± gives the spread as reported.
Chain of UniProt P05177 (whole entry, looked up): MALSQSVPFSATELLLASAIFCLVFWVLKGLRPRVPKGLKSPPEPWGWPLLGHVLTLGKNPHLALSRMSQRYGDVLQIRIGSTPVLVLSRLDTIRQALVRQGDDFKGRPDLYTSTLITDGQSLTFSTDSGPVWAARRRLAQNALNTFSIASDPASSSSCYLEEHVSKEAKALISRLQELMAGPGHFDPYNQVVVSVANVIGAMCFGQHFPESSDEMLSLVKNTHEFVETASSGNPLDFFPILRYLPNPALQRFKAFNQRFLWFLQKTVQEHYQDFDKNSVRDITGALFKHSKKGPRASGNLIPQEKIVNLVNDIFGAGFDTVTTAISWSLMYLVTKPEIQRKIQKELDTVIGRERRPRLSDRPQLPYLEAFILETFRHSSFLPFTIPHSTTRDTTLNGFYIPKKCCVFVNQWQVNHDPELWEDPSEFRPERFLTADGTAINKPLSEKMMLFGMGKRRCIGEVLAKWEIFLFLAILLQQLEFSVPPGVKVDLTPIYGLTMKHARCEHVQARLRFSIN

Structure (SMILES) | target or system | assay | test system | setting | how to read | endpoint | value
COc1cccc(-c2n[nH]c(SCc3ccccn3)n2)c1OC | Salmonella typhimurium | Ames test, plate incorporation | TA98 | 0.016 mg/plate, without S9 |  | revertant colonies per plate | 15
Cc1cc(C(C)(C)c2ccc(O)c(C)c2)ccc1O | HepG2 spheroids | flow cytometry, refers to: phospho-histone H3 |  | concentration not given, 96 h |  | mitotic cells | no effect
Cc1cc(C(=O)NC(C)(C)COc2cccc3c2C(N)=NS(=O)(=O)N3)cc(C)n1 | Escherichia coli | Ames test, initial | WP2 uvrA | 500 µg/plate, with: rat liver S9 | baseline: solvent control | revertant ratio | 0.7
CC(C)CC(=O)OC[C@H]1O[C@@](C#N)(c2ccc3c(N)ncnn23)[C@H](O)[C@@H]1O | Cytochrome P450 1A2 (CYP1A2, Homo sapiens, UniProt P05177) | metabolic stability | recombinant enzyme | 1 µM |  | half-life | > 4.13 h
Cc1ncc2n1-c1ccc(Cl)cc1C(c1ccccc1F)=NC2 |  |  | wild-type mouse, plasma | intravenous, 0.3 mg/kg, 3-day vehicle pretreatment |  | AUC(0-90 min) | 0.0332 ± 0.00293 µM·h
CC[C@H](C)[C@H](NC(=O)[C@H](C)NC(=O)[C@H](CCCNC(=N)N)NC(=O)[C@H](CCCNC(=N)N)NC(=O)[C@H](CCCNC(=N)N)NC(=O)[C@H](CCCNC(=N)N)NC(=O)[C@H](CCCNC(=N)N)NC(=O)[C@@H](N)CCCNC(=N)N)C(=O)N[C@@H](CO)C(=O)NCC(=O)N[C@@H](CO)C(=O)N[C@@H](CC(C)C)C(=O)N[C@H](C(=O)N[C@H](C(=O)N[C@@H](CC(C)C)C(=O)N[C@@H](Cc1ccccc1)C(=O)NCC(=O)N[C@@H](Cc1ccc(O)cc1)C(N)=O)[C@@H](C)O)C(C)C | human erythrocytes |  |  | 400 µM, 1 h | baseline: Triton X-100 | hemolysis | 13%
O=[N+]([O-])c1ccc(N2CCN(CCC(O)c3ccc(F)cc3)CC2)c(C(F)(F)F)c1 (stereo not drawn) | Salmonella typhimurium | SOS/umu test | TA1535/pSK1002 | 0.063 mg/mL, 4 h, without S9, full range |  | survival | 35.8%
CC[C@H](C)[C@H](NC(=O)[C@H](CC(C)C)NC(=O)[C@@H](NC(=O)[C@H](CCCNC(=N)N)NC(=O)[C@H](CCCNC(=N)N)NC(=O)[C@H](CCCNC(=N)N)NC(=O)[C@@H](N)CCCNC(=N)N)[C@@H](C)CC)C(=O)N[C@@H](CCCCN)C(=O)N[C@@H](CCCCN)C(=O)N[C@H](C(=O)N[C@@H](CC(C)C)C(=O)N[C@@H](CCCCN)C(=O)N[C@@H](CC(C)C)C(=O)N[C@@H](CCCCN)C(=O)N[C@@H](CO)C(=O)N[C@@H](CO)C(=O)N[C@@H](C)C(=O)N[C@@H](Cc1ccc(O)cc1)C(N)=O)C(C)C | human erythrocytes |  |  | 400 µM, 1 h | baseline: Triton X-100 | hemolysis | 9%
OCc1ncc2n1-c1ccc(Cl)cc1C(c1ccccc1F)=NC2 |  |  | human, plasma | 7.5 mg midazolam, day 1, geometric mean, metabolite of midazolam, with: midazolam 7.5 mg alone |  | half-life | 3.8 h
CC(=O)N1CCC(C(=O)N2CCN3C(=O)c4cc(-c5ccccc5)ccc4NC(=O)C3C2)CC1 (stereo not drawn) | Salmonella typhimurium |  | TA98 | 5000 µg/plate |  | revertants per plate | 30.5
COc1cc2c(Oc3ccc4[nH]c(C)cc4c3F)ccnc2cc1OCC1(N)CC1 |  |  | paediatric recurrent refractory sarcoma | 10 mg |  | grade 1 or 2 Hematochezia | 0%
CO[C@H]1C[C@@H]2CC[C@@H](C)[C@@](O)(O2)C(=O)C(=O)N2CCCC[C@H]2C(=O)O[C@H]([C@H](C)C[C@@H]2CC[C@@H](OC(=O)NCCOCCOCCOCCOCCOCCOCCOCCOCCC(=O)N3CCc4cc(Cn5nc(-c6ccc7oc(N)nc7c6)c6c(N)ncnc65)ccc4C3)[C@H](OC)C2)C[C@@H](O)[C@H](C)/C=C(\C)[C@@H](O)[C@@H](OC)C(=O)[C@H](C)C[C@H](C)/C=C/C=C/C=C/1C |  | phase 1 dose escalation, refers to: diarrhoea | advanced solid tumour patients | intravenous, 12 mg weekly, any grade |  | TRAE incidence | 16.7%
CC[C@H](C)[C@H](NC(=O)[C@H](CCCNC(=N)N)NC(=O)[C@H](CCCNC(=N)N)NC(=O)[C@@H](N)CCCNC(=N)N)C(=O)N[C@@H](CO)C(=O)N[C@@H](Cc1ccccc1)C(=O)N[C@@H](CC(C)C)C(=O)NCC(=O)N[C@@H](CO)C(=O)N[C@@H](CCCCN)C(=O)N[C@H](C(=O)N[C@H](C(=O)N[C@H](C(=O)N[C@@H](CC(C)C)C(=O)N[C@@H](CC(C)C)C(=O)N[C@@H](CCCCN)C(=O)N[C@@H](CCCNC(=N)N)C(=O)N[C@@H](CCCNC(=N)N)C(=O)N[C@@H](CCCNC(=N)N)C(=O)N[C@@H](CCCNC(=N)N)C(N)=O)C(C)C)C(C)C)C(C)C | human erythrocytes |  |  | 400 µM, 1 h | baseline: Triton X-100 | hemolysis | 13%
COc1ccc(-n2nc(C(C)=O)s/c2=N\N=C(/C)c2ccc(NC(C)=O)cc2)cc1 | WI-38 |  |  | 5 µM, 24 (unit not given) |  | viability | 3.98%
COc1ncnn2ccc(-c3cnc4nc(C)n(Cc5nnc([C@@H](C)F)o5)c4c3)c12 |  |  | human | oral, dose not given, grade 2 |  | patients with hyponatremia | 14.3%
O=C(/C=C/c1ccc(O)c2oc(-c3ccc(O)c(O)c3)cc12)O[C@H](Cc1ccc(O)c(O)c1)C(=O)O | 293T-ACE2 | cytotoxicity, MTT |  | 48 h, 50% serum |  | CC50 | > 100 µM
O=c1ccc2ccccc2o1 | HepaRG 3D spheroids | oxidative stress, high-content screening |  | concentration not given, 168 h, 10% FBS medium |  | probability of response | 48.3%
CC[C@H](C)[C@H](NC(=O)[C@H](CC(C)C)NC(=O)[C@@H](NC(=O)[C@@H](NC(=O)[C@@H](NC(=O)[C@H](CCCNC(=N)N)NC(=O)[C@H](CCCNC(=N)N)NC(=O)[C@H](CCCNC(=N)N)NC(=O)[C@@H](N)CCCNC(=N)N)C(C)C)[C@@H](C)CC)[C@@H](C)CC)C(=O)N[C@@H](CO)C(=O)N[C@@H](CC(C)C)C(=O)N[C@@H](CCCNC(=N)N)C(=O)N[C@@H](CCCNC(=N)N)C(=O)N[C@@H](CCCNC(=N)N)C(=O)N[C@@H](CCCNC(=N)N)C(=O)N[C@@H](Cc1ccccc1)C(=O)N[C@@H](CO)C(=O)N[C@@H](C)C(=O)N[C@@H](Cc1ccc(O)cc1)C(N)=O | human erythrocytes |  |  | 400 µM, 1 h | baseline: Triton X-100 | hemolysis | 25%
CN1CC[C@@H](c2c(O)cc(O)c3c(=O)cc(-c4ccc(C(F)(F)F)cc4Cl)oc23)[C@@H]1CO |  | refers to: Vomiting | B-cell malignancies | oral, 200 mg, intermittent dosing |  | patients with adverse event | 100%
CC[C@H](C)[C@H](NC(=O)[C@H](CC(C)C)NC(=O)[C@@H](NC(=O)[C@H](CCCNC(=N)N)NC(=O)[C@H](CCCNC(=N)N)NC(=O)[C@H](CCCNC(=N)N)NC(=O)[C@@H](N)CCCNC(=N)N)[C@@H](C)CC)C(=O)N[C@@H](CCCNC(=N)N)C(=O)N[C@@H](CCCNC(=N)N)C(=O)N[C@H](C(=O)N[C@@H](CC(C)C)C(=O)N[C@@H](CCCNC(=N)N)C(=O)N[C@@H](CC(C)C)C(=O)N[C@@H](CCCNC(=N)N)C(=O)N[C@@H](CO)C(=O)N[C@@H](CO)C(=O)N[C@@H](C)C(=O)N[C@@H](Cc1ccc(O)cc1)C(N)=O)C(C)C | human erythrocytes |  |  | 400 µM, 1 h | baseline: Triton X-100 | hemolysis | 11%
CCN(CC)C(=O)[C@@H]1C=C2c3cccc4[nH]cc(c34)C[C@H]2N(C)C1 |  |  | human | oral, 100 µg |  | half-life | 3.36 h and 3.17 h and 3 h and 6.11 h and 3.73 h and 2.85 h and 3.26 h

Some of these lines once more:
Structure (SMILES) | target or system | assay | test system | setting | how to read | endpoint | value
CC(=O)N1CCC(C(=O)N2CCN3C(=O)c4cc(-c5ccccc5)ccc4NC(=O)C3C2)CC1 (stereo not drawn) | Salmonella typhimurium |  | TA98 | 5000 µg/plate |  | revertants per plate | 30.5
CC[C@H](C)[C@H](NC(=O)[C@H](CC(C)C)NC(=O)[C@@H](NC(=O)[C@H](CCCNC(=N)N)NC(=O)[C@H](CCCNC(=N)N)NC(=O)[C@H](CCCNC(=N)N)NC(=O)[C@@H](N)CCCNC(=N)N)[C@@H](C)CC)C(=O)N[C@@H](CCCNC(=N)N)C(=O)N[C@@H](CCCNC(=N)N)C(=O)N[C@H](C(=O)N[C@@H](CC(C)C)C(=O)N[C@@H](CCCNC(=N)N)C(=O)N[C@@H](CC(C)C)C(=O)N[C@@H](CCCNC(=N)N)C(=O)N[C@@H](CO)C(=O)N[C@@H](CO)C(=O)N[C@@H](C)C(=O)N[C@@H](Cc1ccc(O)cc1)C(N)=O)C(C)C | human erythrocytes |  |  | 400 µM, 1 h | baseline: Triton X-100 | hemolysis | 11%
CO[C@H]1C[C@@H]2CC[C@@H](C)[C@@](O)(O2)C(=O)C(=O)N2CCCC[C@H]2C(=O)O[C@H]([C@H](C)C[C@@H]2CC[C@@H](OC(=O)NCCOCCOCCOCCOCCOCCOCCOCCOCCC(=O)N3CCc4cc(Cn5nc(-c6ccc7oc(N)nc7c6)c6c(N)ncnc65)ccc4C3)[C@H](OC)C2)C[C@@H](O)[C@H](C)/C=C(\C)[C@@H](O)[C@@H](OC)C(=O)[C@H](C)C[C@H](C)/C=C/C=C/C=C/1C |  | phase 1 dose escalation, refers to: diarrhoea | advanced solid tumour patients | intravenous, 12 mg weekly, any grade |  | TRAE incidence | 16.7%
